Measurements of several laboratories.
Each line is one published result; not all experiments were run side by side. Values joined by “and” are separate records of one study, mostly repeats; a detail may differ. Numbers after ± are the reported error. ≈ marks a conversion by molar mass, not a printed value.

For N#Cc1c(N)nc2c(c1-c1ccc(CO)o1)Cc1cc(O)ccc1-2, “level, TIM-3, and LAG-3” read “decreased” (exhausted human CD8+ T cells; flow cytometry; 20 µM, 24 h, cycle 6).
CCOc1cncc(-c2ccc(NC(=O)C3(c4ccnc(NS(=O)(=O)C5CC5)n4)CCOCC3)nc2)n1 has an IC50 of 111 nM (colon cancer; cell viability, CellTiter-Glo; DMSO 0.1%; 72 h, line code 269).
For CN1CCCNC(=O)c2cccc(c2)C(=O)NCCCN(C)CCCNc2cccc3c2C(=O)c2cccc(c2C3=O)NCCC1, “log2 fold change” read 0.756 (SAS; RNA-Seq, measured: PEX6 mRNA; 1 µM, 6 h; relative to: untreated cells).
For CCC(CC)n1c(Cc2cccs2)nc2cc(C(=O)N[C@@H](CC(=O)O)c3ccccc3)ccc21, LDH release read “decreased” (H9c2; concentration not given, 48 h, with: ISO and MCM).
O=C(Nc1nnc2c1c(-c1ccc(Cl)cc1)nc1sc(=Cc3ccco3)c(=O)n12)c1ccccc1 (mixture of isomers) gave a growth percent of 53.6% (786-0; NCI60 SRB; 10 µM).
With Cc1cc(NC2CCN(C)CC2)ccc1-c1cc2c(N3CCC[C@H](C(=O)NCc4ccc(OC(F)(F)F)cc4)C3)ncnc2[nH]1 the inhibition was 86.9% (KARPAS-299; cell growth or viability, MTT; 1 µg/mL, 72 h).
Cn1ncc2cc(-c3cncc(Cl)c3N3CCC4(CCNC4=O)CC3)ccc21: “fold change in expression” -1.23 (LS174T; microarray, measured: PTGS2; concentration not given, 4 h, gene set COX-2; relative to: untreated cells).
Under “log2 fold change”, Cc1ncsc1-c1ccc(C(C)NC(=O)C2CC(O)CN2C(=O)C(NC(=O)CCCCCCCCCCN2CCCC(Nc3ncc(Cl)c(Nc4ccccc4S(=O)(=O)C(C)C)n3)C2)C(C)(C)C)cc1 (stereo not shown) is recorded as -1.14 (22Rv1; RNA-seq, measured: ZNF175 mRNA; concentration not given; relative to: DMSO).
CC[C@H]1CN([C@@H](CC)c2ccc(C(F)(F)F)cc2)[C@H](CC)CN1c1nc(=O)n(C)c2ccc(C#N)nc12 gave an EC50 of 15 nM (mouse naive OT-1 CD8+ T cells; T-cell proliferation; 4 days, with: BMDCs cross-presenting OVA).
With COC(=O)c1cc(NC2=NC(=O)C(=Cc3ccc(N(C)C)cc3)S2)ccc1OC(C)=O the mRNA level was 187 fold change (A549; measured: BECN1; 2.93 µM, 24 h; relative to: DMSO).
The cytotoxicity of Cc1ccc(-n2cc(CSc3nc4ccccc4n3Cc3cn(-c4ccc(C)cc4)nn3)nn2)cc1 is reported as 92.6% (MDA-MB-231; MTT; 250 ppm).
Cc1ccc2c(c1)sc(-c1ccc(N(C)C)cc1)[n+]2C.[I-] gave a translation activity of 74% and 84.8% (Trypanosoma cruzi; reporter mRNA translation, inhibitor, measured: Renilla luciferase mRNA; cell-free extract; concentration not given, test 2; relative to: positive over negative control).
C=C1C[C@]2(C(=O)OC)C=C(C(=O)Nc3cccc(C(=O)Nc4ccc(Nc5nccc(-c6cccnc6)n5)c(C)c4)c3)C(=O)[C@H]1C2 has a reporter activity of 1.11 (HEK293 AP1 reporter cells; AP-1 reporter gene, inhibitor; 1 µM, 6 h, unit not given, with: PMA; relative to: PMA alone).
For COc1c(C)c(OS(=O)(=O)c2ccccc2)c(C)c(O)c1C(=O)/C=C/c1ccccc1, the selectivity index was 1.07 (FaDu; SRB; relative to: normal over FaDu IC50).
The colony survival of CO[C@@H]1[C@@H](OC(N)=O)[C@@H](O)[C@H](Oc2ccc3c(O)c(NC(=O)c4ccc(O)c(CC=C(C)C)c4)c(=O)oc3c2C)OC1(C)C is reported as 0.326% (DLD-1 BRCA2-/-; 300 µM, mean of replicates A, B; relative to: untreated).
For CCOc1cc(CN2CCCC(CNC(=O)c3ccc(F)cc3)C2)ccc1OC (stereo not shown), the translation activity was 108% (Trypanosoma cruzi; reporter mRNA translation, inhibitor, measured: Renilla luciferase mRNA; cell-free extract; concentration not given, test 3; relative to: positive over negative control).
C=CC(=O)N1[C@H](c2ccc3c(c2)OCO3)c2[nH]c3ccccc3c2C[C@@H]1C(=O)NC1CC1 has a neuron degeneration of 64.3% and 63.6% (rat DRG neurons; 0.1235 µM, 48 h, with: vincristine 40 nM).
With COc1ccc2c(c1)OC1=C(C(=O)CCC1)C2c1c[nH]c2ccccc12 (stereo not shown) the IC20 was 76.1 µg/mL (≈ 220 µM) (3T3-L1; cell growth or viability, MTT; 72 h).
For C=CC(=O)N1CCCC(n2c(=O)c3ncccc3n(Cc3ccc(Oc4ccccc4)cc3)c2=O)C1 (stereo not shown), “log2 fold change” read 0.333 (Rec1; measured: GCLC; concentration not given; relative to: untreated).
CC(C)c1ccc(N(C)c2ccc3c(c2)OCC[C@H]3CNc2cnccc2C(=O)O)cc1 has an IC50 of 14.2 nM (HT55; cell growth or viability, ATP luminescence; 7 days).
COc1cccc(OC)c1-c1cc(C(=O)NC2(C(=O)O)C3CC4CC(C3)CC2C4)nn1-c1ccc(C(=O)N(C)CCOCCOCCN(C)C(=O)[C@H](CCCCNC(=O)[C@H](CC(C)C)NC(=O)C2OC2C(=O)O)NC(=O)CN2CCN(CC(=O)[O-])CCN(CC(=O)[O-])CCN(CC(=O)[O-])CC2)cc1C(C)C.[177Lu+3] (mixture of isomers) gave a surface-bound fraction of 0.68 ± 0.05% (HT-29; concentration not given, 30 min; relative to: added activity).
The sphingomyelin level of CCCCCCc1cccc([C@H](O)C[C@H](CO)NC(=O)CCCCCCCCCCBr)c1 is reported as 32500 pmol/sample and 49000 pmol/sample (HeLa; CERT activity, HPLC-MS/MS lipidomics, measured: sphingomyelin 22; 1 µM, 24 h, not cell-number normalised).
O=C(C[Se]C(=O)c1ccccc1Nc1ccccc1)Nc1cccc(C(F)(F)F)c1 gave a GI50 of 1760 nM (NCI60 CNS cancer panel; five-dose screen).
For COc1ccc(NC(=O)c2ccc3[nH]c(-c4ccc(N(C)C)cc4)nc3c2)cn1, “caspase 3/7 activity” read 2.48 (HCT-116; 8 µM, 16 h, unit not given; relative to: DMSO).
For CN1CCN(C(=O)c2ccc(-c3cc4c(N5CCC[C@H](C(=O)NCc6ccc(OC(F)(F)F)cc6)C5)ncnc4[nH]3)cc2)CC1, the inhibition was 68.7% (KARPAS-299; cell growth or viability, MTT; 0.04 µg/mL, 72 h).
CN(C)Cc1nc(Nc2ccc(-c3cnc4cc(F)ccn34)c3c2C(=O)NC3)ccc1C1CCOC1 (stereo not shown) gave an EC50 of 11 nM (human CD4 T cells; cytokine induction, measured: IFNγ; with: anti-CD3/CD28).
With C=C1C(=O)OC2C1CCC(C)(O)C13C=CC(C)(C21)C1(C3)C(=O)OC2C3C(=C(C)CC(OC(=O)C=C(C)C)C21)CC(O)C3(C)Cl (stereo not shown) the maximum inhibition was 35.5 ± 2.64% (AML12 mouse hepatocytes; lipid accumulation, Nile Red staining; maximum safe concentration, 24 h, with: palmitic acid/oleic acid).
Cc1c(Cl)cccc1Nc1ccccc1C(=O)[Se]CC(=O)Nc1cccc(C(F)(F)F)c1 has a GI50 of 1730 nM (NCI60 CNS cancer panel; five-dose screen).
Under mitochondrial content, C=C1C(=O)OC2C1CCC(C)(O)C13C=CC(C)(C21)C1(C3)C(=O)OC2C3C(C)C(=O)CC3C(=C)CC(OC(C)=O)C21 (stereo not shown) is recorded as “increased” (AML12; MitoTracker Green; concentration not given, with: palmitate/oleate).
CNS(=O)(=O)Nc1nccc(Cc2c(C)c3ccc(Oc4ncccc4F)cc3oc2=O)c1F has an IC50 of greater than 1000 nM (NCI-H661; cell viability; 7 days).
With CCN(CC)CC(=O)Nc1cccc(-n2cc(-c3ccc4ccc(-c5cn(-c6cccc(NC(=O)CN(CC)CC)c6)nn5)cc4c3)nn2)c1 the fold regulation was -1.34 (RCC4; PCR angiogenesis array, measured: ITGB3; 5 x IC50, 4 h, normoxia; relative to: untreated).
Under “early apoptotic cells”, COc1cc(N2CCN(C(=O)C3CCCN3)CC2)ccc1Nc1ncc(Cl)c(Nc2ccccc2P(C)(C)=O)n1 (stereo not shown) is recorded as 7.84% and 7.57% and 7.52% (Ba/F3 EML4-ALK; flow cytometry; concentration not given, 24 h).
Cc1ccncc1.[Cl-].[Cl-].[Ru+2].c1cc(-c2ccc3cccnc3n2)nc(-c2ccc3cccnc3n2)c1.c1ccc2cc3nc4c5cccnc5c5ncccc5c4nc3cc2c1 gave an EC50 of 605 ± 21 nM (SK-MEL-28; photocytotoxicity; light 633 nm, oxygen 18.5%).
Cc1cc(Cl)cc(-c2ccnc3cc(CN4C(=O)C5C(C4=O)C5(C)C)sc23)c1C[C@@H]1CNCCO1 (stereo partly shown) — result for “apoptotic cells (early plus late)”: 18.7% and 14.1% and 19.6% (CHP-212 parental (wild-type USP7); annexin V-PI flow cytometry; 0.1 µM, 48 h).
COc1ccc(N(CCO)S(=O)(=O)C2CC3OC2C(c2ccc(O)cc2)=C3c2ccc(O)cc2)cc1 (stereo not shown) has an Emax of 3.7% (MCF7 3xERE-luc, steroid-deprived; ERE luciferase reporter, agonist; relative to: vehicle).
COc1ccccc1-c1ccncc1C(=O)Nc1nnc(OCc2ccc(Cl)cc2)s1 — result for “change in MMEJ frequency”: 9.6% and 13% and 5.7% (U2OS EJ2-GFP; EJ2-GFP reporter, GFP+/dsRed+ ratio; 15 µM, with: I-SceI transfection; relative to: DMSO).
With COC(=O)c1cc(NC2=NC(=O)C(=Cc3ccc(C)cc3)S2)ccc1OC(C)=O the metabolite level was 0.81 fold change (MCF7; GC-MS, measured: Oxalic acid; 1 µM; relative to: DMSO).

Excerpt of the above:
O=C(Nc1nnc2c1c(-c1ccc(Cl)cc1)nc1sc(=Cc3ccco3)c(=O)n12)c1ccccc1 (mixture of isomers) gave a growth percent of 53.6% (786-0; NCI60 SRB; 10 µM).
Cn1ncc2cc(-c3cncc(Cl)c3N3CCC4(CCNC4=O)CC3)ccc21: “fold change in expression” -1.23 (LS174T; microarray, measured: PTGS2; concentration not given, 4 h, gene set COX-2; relative to: untreated cells).
